Measured values gathered from unrelated publications.
Each numbered part is a random draw from the data of one study; scales do not carry over between parts. Positions count from the first letter of the parent shown.

Study 1
Target: Fragile X messenger ribonucleoprotein 1, C-terminal low-complexity region (Fmr1, Mus musculus, UniProt P35922)
Method: RNA Bind-n-Seq
Form: RNA
Sample: in vitro
Concentration: 200 nM
Setting: whole 134-nt RNA, ends assumed
With: 150 mM KCl
Reference: input library
Direction: higher = stronger binding
For `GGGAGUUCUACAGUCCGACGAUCCUCAAGUCCUGUGCUACACAUCGUAUGUACCGAAUCGGGAGGGAAAGGGAGGGAAAGUAUUAUGUUACGCCGUUCGGAUCUGCACUUCCAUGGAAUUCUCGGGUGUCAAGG`, the log2 enrichment was 1.16.
`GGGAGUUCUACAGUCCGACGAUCGCACGAAGUAAAAACAAAUGGAAAUGCUUCGGAUAGUGGCAGGGGUGGGGGUUGCUAAGGAAAGGGUGGGAUGGGAGUGGGUAAAGAGUUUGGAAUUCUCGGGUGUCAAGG` has a log2 enrichment of 0.0705.
`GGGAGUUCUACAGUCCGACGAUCCUCAAGUCCUGUGCUACACAUCGUAUGUACCGAAUCGGGGAGGGAGGGGAGGGAAAGUAUUAUGUUACGCCGUUCGGAUCUGCACUUCCAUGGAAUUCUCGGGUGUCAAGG` gave a log2 enrichment of 1.32.
`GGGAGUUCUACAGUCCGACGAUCAGUCCUGUGCUACACAUCGUAUGUACCGAAUCGGAAAAAGGAAAAAGGAAAAAGGGGAAAGUAUUAUGUUACGCCGUUCGGAUCUGCACUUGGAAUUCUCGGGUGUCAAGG` has a log2 enrichment of -0.624.
The log2 enrichment of `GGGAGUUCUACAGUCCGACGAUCGCAGGAAGUAAGAACAAAUGGAAAUGCUUCGGAUAGUGGCAGGGGUGGGGGUUGCUAAGGAAAGGGUGGGAUGGGAGUGGGUAAAGAGUUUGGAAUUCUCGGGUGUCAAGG` is reported as 1.16.
For `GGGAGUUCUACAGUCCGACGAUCUGGCCCUGGUGGGAUGCGGGGAGGAAGAGGUGGCCUCAUGGAUCGUGGUGGUCCCGGUGGAAUGUUCAGAGGUGGCCGUGGUGGAGACAGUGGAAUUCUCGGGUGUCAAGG`, the log2 enrichment was 0.301.
`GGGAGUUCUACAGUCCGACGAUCACCAUGCAGGUGGGCAUCUCUGGGAAGUGGGGCAAGGGGGGGAUAGGGAGGGGGGUAACACUUUGGGAACAGGUGGUCCCAGGUCGUUUCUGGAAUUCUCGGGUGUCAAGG` has a log2 enrichment of 0.813.
`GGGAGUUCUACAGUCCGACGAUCUCCUGUGCUACACAUCGUAUGUACCGAAUCGGCCCCCCCGGCCCCCCCGGCCCCCCCGGGAAAGUAUUAUGUUACGCCGUUCGGAUCUGCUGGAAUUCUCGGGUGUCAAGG` gave a log2 enrichment of 0.312.
`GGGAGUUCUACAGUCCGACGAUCAGUCCUGUGCUACACAUCGUAUGUACCGAAUCGGGGUGGGGUUUUUUUGGGGAGGGGAAAGUAUUAUGUUACGCCGUUCGGAUCUGCACUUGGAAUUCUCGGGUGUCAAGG` gave a log2 enrichment of 0.978.

Study 2
Target: CCND1, cyclin fold, Cln2 fusion (human)
Method: yeast growth competition, sequencing
Sample: yeast
Setting: strong parent motif
Reference: not given
Direction: higher = stronger binding
Starting sequence: PKN2 docking peptide (human); VSAVRKLDFSDTM
`VSAHRKLDFSDTM [V4H]` — result for “normalised enrichment score”: 1.7.
For `VSAVRKLDFSQTM [D11Q]`, “normalised enrichment score” read 4.71.
Under “normalised enrichment score”, `VSAVRKLNFSDTM [D8N]` is recorded as 3.77.
`VSCVRKLDFSDTM [A3C]`: “normalised enrichment score” 4.11.
`VSAVRKLCFSDTM [D8C]` — result for “normalised enrichment score”: 3.02.
Under “normalised enrichment score”, `VSGVRKLDFSDTM [A3G]` is recorded as 1.27.
`VSAVRKFDFSDTM [L7F]`: “normalised enrichment score” 0.26.
`VSNVRKLDFSDTM [A3N]`: “normalised enrichment score” 0.576.
Under “normalised enrichment score”, `VSAERKLDFSDTM [V4E]` is recorded as 0.943.
Under “normalised enrichment score”, `VSAVWKLDFSDTM [R5W]` is recorded as 0.972.
`VSAVRKLDPSDTM [F9P]` — result for “normalised enrichment score”: 0.0213.
`VIAVRKLDFSDTM [S2I]`: “normalised enrichment score” 3.09.
Under “normalised enrichment score”, `VSAVRRLDFSDTM [K6R]` is recorded as 5.55.
Under “normalised enrichment score”, `VSAVRYLDFSDTM [K6Y]` is recorded as 3.56.
`VSAVRKNDFSDTM [L7N]`: “normalised enrichment score” -0.127.
`VSAVNKLDFSDTM [R5N]` — result for “normalised enrichment score”: 0.465.
`VSAVRKDDFSDTM [L7D]`: “normalised enrichment score” -0.108.
For `VSAVRKLDLSDTM [F9L]`, “normalised enrichment score” read 1.01.
`VSAVRKLDFSDWM [T12W]` — result for “normalised enrichment score”: 5.77.
For `VSAVRKLQFSDTM [D8Q]`, “normalised enrichment score” read 3.45.
`VSAVRKTDFSDTM [L7T]`: “normalised enrichment score” 0.203.
Under “normalised enrichment score”, `VSAVRKLDFSATM [D11A]` is recorded as 4.95.
Under “normalised enrichment score”, `VSRVRKLDFSDTM [A3R]` is recorded as 0.528.
`VQAVRKLDFSDTM [S2Q]` — result for “normalised enrichment score”: 3.75.
For `VSAVRKLDDSDTM [F9D]`, “normalised enrichment score” read -0.131.

Study 3
Target: ABI1, truncated, D143A, DHFR fusion (Arabidopsis thaliana, UniProt P49597)
Method: DHFR PCA, dose-response
Sample: yeast
Setting: Hill fit, not affinity, not high confidence
With: (+)-ABA, dose series
Direction: lower = more sensitive
Starting sequence: PYL1, truncated, DHFR fusion (Arabidopsis thaliana, UniProt Q8VZS8); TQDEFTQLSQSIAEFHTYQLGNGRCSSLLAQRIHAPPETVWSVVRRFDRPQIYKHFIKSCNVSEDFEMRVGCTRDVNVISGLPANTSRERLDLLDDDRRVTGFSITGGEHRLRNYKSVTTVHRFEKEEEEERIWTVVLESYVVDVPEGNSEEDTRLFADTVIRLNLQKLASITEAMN
With `L94P` the ABA EC50 was 12.8 µM.
For `W41V`, the ABA EC50 was 62.2 µM.
With `E89R` the ABA EC50 was 0.719 µM.
`T120I` has an ABA EC50 of 1850 µM.
For `V137N`, the ABA EC50 was 1.29 µM.
With `T135D` the ABA EC50 was 0.87 µM.
The ABA EC50 of `F103G` is reported as 8.6 µM.
`I57E` gave an ABA EC50 of 701 µM.
`I33K` gave an ABA EC50 of 473 µM.
With `E128H` the ABA EC50 was 3.49 µM.
`L82W` gave an ABA EC50 of 223 µM.
`A84K` has an ABA EC50 of 0.112 µM.
`S87M` has an ABA EC50 of 0.482 µM.
For `V44H`, the ABA EC50 was 0.388 µM.

Study 4
Target: RNA binding protein fox-1 homolog 2, RRM domain, GST-SBP tag (RBFOX2, Homo sapiens, UniProt O43251-10, residues 100-194)
Method: RNA Bind-n-Seq
Form: RNA
Sample: in vitro
Concentration: 365 nM
Setting: natural RNA segment, single round, ends assumed
Reference: no-protein control
Direction: higher = stronger binding
Construct (chain): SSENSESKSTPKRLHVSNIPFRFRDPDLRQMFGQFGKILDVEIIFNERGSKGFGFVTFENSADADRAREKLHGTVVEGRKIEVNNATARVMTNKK
For `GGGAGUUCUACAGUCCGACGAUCAUUACAGUGCUUUGGCUGGCUGAAGGUGGGAUUUGGGGACAGAAGUUACAUCAGAAUGUCAGAUGGAAGAAAAACAAGCUGGCCCUGGGCAAAAUGCUCAACUGUCAGCCUGGAAUUCUCGGGUGCCAA`, “RBNS enrichment (R)” read 2.79.
`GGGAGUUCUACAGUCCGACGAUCGGUGACUGAUGUGGCCGAAGCAGGUGUCCAGGCAGGUAGGCUGCAGCCAGGAGCUCCCUGGCACCGCAGGACCUCGUGGUACUCUUGCCUUAGAUUUUACACACACUCCAUGGAAUUCUCGGGUGCCAA`: “RBNS enrichment (R)” 0.351.
`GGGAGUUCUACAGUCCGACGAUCUGACACAGACUGCCUGCCUUGAAGCUGAGAAGGCACAGGGCAAGGAGCCAAGGACCACAGAGCCUCAGCCAGCCCAGGAUCCGUCCUCAUUUUAUUGGUGAUGAUGAAUGUGGAAUUCUCGGGUGCCAA`: “RBNS enrichment (R)” 0.255.
For `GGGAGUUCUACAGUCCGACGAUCGCAAAUAGUGUUCUCAUCUCAAAGCAAACUAUCAUUCCAGAAGGAAAAGUGUGUCAGGGCAAGCAGACAACACAAUUUCCUAUCAGAAUAUGUCCCUCAACCCCCGAAACUGGAAUUCUCGGGUGCCAA`, “RBNS enrichment (R)” read 0.881.
Under “RBNS enrichment (R)”, `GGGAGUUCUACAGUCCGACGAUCGGGGCCCACCCUGCUCCCUGUUCCUGCUAGGGCCUGCCAGUGCCCCUGAGCUUGCUUUCCACAUUCUCCCAGGGUAUGGAGACCUAGACCUGUCUUUGGGGCCAUUAGCAUGGAAUUCUCGGGUGCCAA` is recorded as 0.749.
Under “RBNS enrichment (R)”, `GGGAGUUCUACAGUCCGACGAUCUACUCAGGCAGUCGACCCGCCACGAUGAGAAGUGGGACCAGCAGAGGGCGCCAACUUCAGGAGUCCGCUUUCCCACCAGGCUUCAUUCACCCAGUGGACCUGAACUGUUUUGGAAUUCUCGGGUGCCAA` is recorded as 0.187.
For `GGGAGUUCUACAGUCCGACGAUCAACAGGUAGCUCUCCAUAAGGAAAUUAUCAUGAGUGUGUUCUCCCAUCAGUGCACUUCUCCCAGGGGUGCUCACUGAAGCUGGUCCACGUCUAUAAACAGGUGACACUGGUGGAAUUCUCGGGUGCCAA`, “RBNS enrichment (R)” read 0.414.
`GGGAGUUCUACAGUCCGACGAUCCUAGUGCCUGGCUUGCCACAUGGAAAGCAAGCACAAGGGAGCAGUAUUCCGUAGCAUAUGAUAGCAGAGCAAAUACCGGAUCUGGAUCUAGCUGAUUUCCAUCCAUUGGCUGGAAUUCUCGGGUGCCAA`: “RBNS enrichment (R)” 0.272.

For quick reference, copied from above (study 2):
Under “normalised enrichment score”, `VSGVRKLDFSDTM [A3G]` is recorded as 1.27.
`VSAVRKFDFSDTM [L7F]`: “normalised enrichment score” 0.26.
`VSNVRKLDFSDTM [A3N]`: “normalised enrichment score” 0.576.
Under “normalised enrichment score”, `VSAERKLDFSDTM [V4E]` is recorded as 0.943.
Under “normalised enrichment score”, `VSAVWKLDFSDTM [R5W]` is recorded as 0.972.
`VSAVRKLDPSDTM [F9P]` — result for “normalised enrichment score”: 0.0213.
`VIAVRKLDFSDTM [S2I]`: “normalised enrichment score” 3.09.
Under “normalised enrichment score”, `VSAVRRLDFSDTM [K6R]` is recorded as 5.55.
Under “normalised enrichment score”, `VSAVRYLDFSDTM [K6Y]` is recorded as 3.56.
